Assay results gathered from unrelated publications.
Compare with care: the assays were run in different laboratories. “And” joins repeats or separate records; there may be more than shown. ± marks the error that the study gave.
Genome polyprotein NS3 helicase domain: Genome polyprotein, NS3 helicase domain (Hepatitis C virus genotype 1b, UniProt Q9WMX2)
WD repeat-containing protein 91 WD40 domain, residues 392–747: WD repeat-containing protein 91, WD40 domain, residues 392–747 (Homo sapiens, UniProt A4D1P6)
Chain of UniProt A4D1P6 (whole entry, looked up): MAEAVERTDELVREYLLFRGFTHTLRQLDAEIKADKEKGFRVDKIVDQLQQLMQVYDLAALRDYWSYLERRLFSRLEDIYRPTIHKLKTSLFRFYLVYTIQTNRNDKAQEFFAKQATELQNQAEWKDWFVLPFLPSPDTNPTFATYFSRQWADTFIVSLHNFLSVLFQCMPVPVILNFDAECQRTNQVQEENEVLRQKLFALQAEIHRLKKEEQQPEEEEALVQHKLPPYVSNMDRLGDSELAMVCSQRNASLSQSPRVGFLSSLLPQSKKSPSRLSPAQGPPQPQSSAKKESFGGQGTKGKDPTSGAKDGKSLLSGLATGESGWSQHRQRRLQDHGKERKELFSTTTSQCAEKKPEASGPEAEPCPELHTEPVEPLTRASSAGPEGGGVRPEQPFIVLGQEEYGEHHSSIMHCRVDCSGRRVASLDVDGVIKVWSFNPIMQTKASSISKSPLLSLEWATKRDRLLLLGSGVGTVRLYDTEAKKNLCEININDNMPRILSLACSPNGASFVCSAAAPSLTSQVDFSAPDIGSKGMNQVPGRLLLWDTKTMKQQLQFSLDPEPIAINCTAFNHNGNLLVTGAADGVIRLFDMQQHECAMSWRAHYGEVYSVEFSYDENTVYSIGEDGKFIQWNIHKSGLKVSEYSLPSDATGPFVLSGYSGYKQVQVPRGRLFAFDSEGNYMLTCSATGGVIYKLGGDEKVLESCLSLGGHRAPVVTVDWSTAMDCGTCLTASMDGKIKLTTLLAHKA
ESR1: Estrogen receptor (ESR1, Homo sapiens, UniProt P03372)
Chain of UniProt P03372 (whole entry, unmodified, looked up): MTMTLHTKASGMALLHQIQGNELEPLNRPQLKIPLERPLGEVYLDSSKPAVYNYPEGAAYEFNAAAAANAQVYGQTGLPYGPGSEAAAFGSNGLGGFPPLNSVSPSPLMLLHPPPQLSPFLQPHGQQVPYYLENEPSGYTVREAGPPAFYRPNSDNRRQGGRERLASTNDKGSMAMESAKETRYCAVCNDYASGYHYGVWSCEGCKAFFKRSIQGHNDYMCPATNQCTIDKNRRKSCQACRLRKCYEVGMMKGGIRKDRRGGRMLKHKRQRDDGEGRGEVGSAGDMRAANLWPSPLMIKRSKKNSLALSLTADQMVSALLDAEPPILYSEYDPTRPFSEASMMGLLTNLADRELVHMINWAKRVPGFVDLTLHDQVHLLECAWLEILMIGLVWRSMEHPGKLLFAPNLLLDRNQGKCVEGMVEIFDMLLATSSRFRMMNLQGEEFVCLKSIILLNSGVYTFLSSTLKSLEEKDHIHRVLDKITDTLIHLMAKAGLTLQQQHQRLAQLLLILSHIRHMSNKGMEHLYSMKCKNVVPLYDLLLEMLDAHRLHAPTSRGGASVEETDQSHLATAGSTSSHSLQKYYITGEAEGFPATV
TLE4: Transducin-like enhancer protein 4 (TLE4, Homo sapiens, UniProt Q04727)
NAA80: N-alpha-acetyltransferase 80 (NAA80, Homo sapiens, UniProt Q93015)
Chain of UniProt Q16774 (whole entry, looked up): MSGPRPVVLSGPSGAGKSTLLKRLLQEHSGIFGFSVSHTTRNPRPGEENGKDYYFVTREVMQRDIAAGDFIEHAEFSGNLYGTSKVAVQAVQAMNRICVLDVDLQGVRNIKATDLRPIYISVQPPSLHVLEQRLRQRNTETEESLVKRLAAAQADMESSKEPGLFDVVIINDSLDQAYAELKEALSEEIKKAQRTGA
Chain of UniProt P51575 (whole entry, unmodified, looked up): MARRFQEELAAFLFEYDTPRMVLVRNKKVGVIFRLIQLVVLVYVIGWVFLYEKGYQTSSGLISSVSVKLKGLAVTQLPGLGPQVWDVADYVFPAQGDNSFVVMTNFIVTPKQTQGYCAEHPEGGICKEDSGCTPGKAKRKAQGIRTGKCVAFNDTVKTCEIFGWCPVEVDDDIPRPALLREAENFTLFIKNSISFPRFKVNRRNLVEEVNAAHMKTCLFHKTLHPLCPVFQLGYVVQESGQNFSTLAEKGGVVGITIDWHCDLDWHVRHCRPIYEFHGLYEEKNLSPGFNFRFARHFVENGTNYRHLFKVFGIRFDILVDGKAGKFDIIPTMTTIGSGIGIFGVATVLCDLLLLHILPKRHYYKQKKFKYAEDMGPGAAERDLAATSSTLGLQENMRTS

SMILES | target | test | test system | conditions | scale | quantity | result
C#C[C@]1(O)CC[C@H]2[C@@H]3CCC4=Cc5oncc5C[C@]4(C)[C@H]3CC[C@@]21C | Genome polyprotein NS3 helicase domain | DNA binding, inhibitor | hepatitis C virus | 100 µM, with: Cy5-dT15 DNA |  | inhibition | 0%
N#CC1CCN(C(=O)c2ccc(CNC(=O)OCc3ccccc3)cc2)CC1 | WD repeat-containing protein 91 WD40 domain, residues 392–747 | binding, SPR single-concentration screen |  | 45 µM |  | SPR response | 0.7 RU and -1.7 RU
CC(C)(C)NCC(O)c1ccc(O)c(CO)c1.CC(C)(C)NCC(O)c1ccc(O)c(CO)c1.O=S(=O)(O)O (centres unmarked) | Genome polyprotein NS3 helicase domain | DNA binding, inhibitor | hepatitis C virus | 100 µM, with: Cy5-dT15 DNA |  | inhibition | 0%
CC[C@@H](C)[C@@H](NC(=O)[C@@H](Cc1ccc(O)cc1)NC(=O)[C@H]1CCCN1C(=O)[C@@H](CCCNC(=N)N)NC(=O)[C@H](N)Cc1c[nH]cn1)C(=O)N[C@H](C)C(=O)N[C@H](Cc1c[nH]cn1)C(=O)N[C@H](CCCNC(=N)N)C(=O)N[C@@H](C(=O)N[C@H](Cc1ccc(O)cc1)C(=O)N[C@H](CO)C(=O)N[C@H](Cc1ccccc1)C(N)=O)C(C)C | Transferrin receptor protein 1 (Tfrc, Mus musculus, UniProt Q62351) | flow cytometry | DC2.4 | 2 h, pH 6, replicate 3, unit not given | reference: 0 h | surface TFRC expression | 0.953
O=C1CC[C@H](N2Cc3c(ccc4c3OCC43CCN(C[C@@H]4CCC5(CCN(c6ccc([C@@H]7c8ccc(O)cc8CC[C@@H]7c7ccccc7)cc6)CC5)OC4)CC3)C2=O)C(=O)N1 | Estrogen receptor (ESR1, Homo sapiens, UniProt P03372, Y537S) | degrader, western blot | MCF7 ESR1 Y537S | 10 and 100 nM, 7 h |  | ER level reduction | > 80%
Cc1[nH]c(=O)c(C#N)cc1-c1ccncc1 | cGMP-inhibited 3',5'-cyclic phosphodiesterase 3A (PDE3A, Homo sapiens, UniProt Q14432) | enzyme activity |  |  |  | Hill coefficient | 0.6
O=C(COP(=O)(O)O)[C@@H](O)[C@H](O)[C@H](O)COP(=O)(O)O | E3 ubiquitin/ISG15 ligase TRIM25 (TRIM25, Homo sapiens, UniProt Q14258) | thermal proteome profiling | HepG2 cell lysate | concentration not given, 57 over 37 °C, mean | reference: compound over control | thermal stability ratio | 0.621
O=C(/C=C/c1ccc(O)cc1)c1c(O)cc(O)cc1O | ESR1 | array formation | PRL-HeLa |  | reference: EC50 ERβ over EC50 ERα | selectivity ratio | 4.79
O=C1NC(=O)/C(=C\c2ccc3nccnc3c2)S1 | Genome polyprotein NS3 helicase domain | DNA binding, inhibitor | hepatitis C virus | 100 µM, with: Cy5-dT15 DNA |  | inhibition | 0%
COc1cc(Nc2ncc3c(n2)-c2ccc(Cl)cc2C(c2c(F)cccc2OC)=NC3)ccc1C(=O)O | PRKG2 | kinase activity |  | 1 µM |  | remaining activity | 104%
Nc1ncnc2c1ncn2[C@@H]1O[C@H](COP(=O)(O)OP(=O)(O)OP(=O)(O)O)[C@@H](O)[C@H]1O | Creatine kinase U-type, mitochondrial (CKMT1A, Homo sapiens, UniProt P12532, E264A) | substrate, ADP-Glo luminescence |  | pH 8.5, forward reaction, E226A mutant, with: second substrate in excess |  | Km | 230 ± 30 µM
N#CC1CCN(C(=O)c2ccc(SCc3nc4ccccc4[nH]3)cc2)CC1 | WD repeat-containing protein 91 WD40 domain, residues 392–747 | SPR |  | 45 µM |  | binding | 0% and -7%
COc1ccc(-c2oc3cc(O)cc(O)c3c(=O)c2O)cc1 | ESR1 | array formation | PRL-HeLa |  | reference: EC50 ERβ over EC50 ERα | selectivity ratio | 1.58
Nc1ncnc2c1ncn2[C@@H]1O[C@H](COP(=O)(O)CP(=O)(O)OP(=O)(O)O)[C@@H](O)[C@H]1O | P2X purinoceptor 1 (P2RX1, Homo sapiens, UniProt P51575, F188L) | calcium influx |  | 1 µM | reference: ionomycin response | calcium influx | 99.3% and 100% and 85.3%
N#CC1CCN(C(=O)c2ccc(CCc3c[nH]c4nc(N)[nH]c(=O)c34)cc2)CC1 | WD repeat-containing protein 91 WD40 domain, residues 392–747 | SPR |  | 45 µM |  | binding | 6% and -10%
C=CC(=O)Nc1cc(S(=O)(=O)N(C)C)ccc1Cl | 14-3-3 protein sigma, with ERα phosphopeptide (SFN, Homo sapiens, UniProt P31947) | binding, fluorescence polarization |  | covalent ligand screen, with: phosphorylated ERalpha peptide | reference: control | FP signal | 110%

SMILES | target | test | test system | conditions | scale | quantity | result
C1=C/COCc2cc(ccc2OCCN2CCCC2)Nc2nccc(n2)-c2cccc(c2)COC/1 | Serine/threonine-protein kinase WNK1 (WNK1, Homo sapiens, UniProt Q9H4A3) |  |  | concentration not given | reference: DMSO control | remaining binding | 81%
Nc1c(Br)cc(Br)cc1CN[C@H]1CC[C@H](O)CC1 | Glutamate receptor 2 (Homo sapiens, UniProt P42262) | ion current, positive allosteric modulator, SyncroPatch patch clamp | HEK293 | 30 µM |  | potentiation | 80%
[Cl-].[K+] | GUK1 (Homo sapiens, UniProt Q16774) | enzyme activity, NADH-coupled |  | 1.875 mM |  | reaction velocity | 0.04 µM/s and 0.0309 µM/s and 0.0286 µM/s
O=C(N[C@@H]1CCc2cc(Cl)ccc21)c1cccc(-c2cnco2)c1 | WD repeat-containing protein 91 WD40 domain, residues 392–747 | binding, SPR single-concentration screen |  | 45 µM |  | SPR response | -8.8 RU and -0.8 RU
Nc1ncnc2c1ncn2[C@@H]1O[C@H](COP(=O)(O)OP(=O)(O)OP(=O)(O)O)[C@@H](O)[C@H]1O | P2X purinoceptor 7 (P2rx7, Rattus norvegicus, UniProt Q64663, Q143A) | ion current, agonist, two-electrode voltage clamp | Xenopus laevis oocytes | 1500 µM | reference: highest concentration response | normalized current | 1
CC1(C)CC2(C)OC(=O)NC2(C)c2ccccc21 (centres unmarked) | TLE4 | binding, affinity selection mass spectrometry |  |  | reference: other proteins in batch | log fold enrichment | 0.116
C[C@@H](c1ccc(-n2cnc3c(N)ncnc32)cc1)N1CCc2nn(C)c(Cc3ccccc3)c2C1=O | Citron Rho-interacting kinase (CIT, Homo sapiens, UniProt O14578) | KINOMEscan |  | 0.1 µM | reference: DMSO control | remaining binding | 100%
C[C@H](N)C(=O)O | NAA80 | substrate, DTNB |  | 2 mM, 30 min, 37 °C, with: acetyl-CoA 500 µM |  | product formation | -1.45 µM
C=CC(=O)N1CCC(COCC(=O)N2CCN(c3nc(-c4cnc(N)nc4C(F)F)nc(N4CCOC[C@@H]4C)n3)CC2)CC1 | Serine/threonine-protein kinase D1 (PRKD1, Homo sapiens, UniProt Q15139) | KINOMEscan |  | 1 µM |  | remaining binding | 100%
CC[C@H](C)C(=O)O[C@H]1C[C@H](O)C=C2C=C[C@H](C)[C@H](CC[C@@H](O)C[C@@H](O)CC(=O)O)[C@H]21 | Nuclear receptor subfamily 4 group A member 3, ligand-binding domain (Homo sapiens, UniProt Q92570) | reporter gene, Gal4 hybrid reporter |  | 10 µM | reference: vehicle | activation | 0.91 fold
COc1cc(/C=C/C(=O)C(=Cc2cccc(O)c2)C(=O)/C=C/c2ccc(O)c(OC)c2)ccc1O | haemin | binding, isothermal titration calorimetry |  | pH 7.4, 37 °C |  | ΔG | -32.2 ± 1.06 kJ/mol
CC[C@H](C)[C@H](NC(=O)[C@H](CCCCN)NC(=O)CNC(=O)[C@@H](NC(=O)[C@@H](NC(=O)[C@H](CCSC)NC(=O)[C@H](Cc1c[nH]cn1)NC(=O)CN)[C@@H](C)O)C(C)C)C(=O)N[C@@H](Cc1ccc(O)cc1)C(=O)N[C@@H](C)C(=O)N[C@@H](C)C(=O)N[C@@H](CCSC)C(=O)N[C@@H](CCSC)C(=O)N[C@H](C(=O)N[C@@H](CCSC)C(=O)N[C@@H](CCC(=O)O)C(=O)N[C@@H](Cc1ccc(O)cc1)C(=O)N[C@@H](Cc1ccc(O)cc1)C(=O)N[C@@H](CCCNC(=N)N)C(=O)N[C@@H](CCC(N)=O)C(=O)N[C@@H](CO)C(=O)N[C@@H](CCCCN)C(=O)N[C@@H](C)C(=O)N[C@@H](CCCCN)C(=O)N[C@@H](CCCCN)C(=O)N[C@@H](CC(C)C)C(=O)N[C@@H](CCC(N)=O)C(=O)N[C@@H](C)C(=O)N[C@@H](CCSC)C(=O)N[C@@H](CCCNC(=N)N)C(=O)O)[C@@H](C)CC | Calmodulin-1, Ca2+-bound C-lobe (CALM1, Homo sapiens, UniProt P0DP23) | competition ITC |  | concentration not given, 15 °C, with: pre-formed Ca2+/N-lobe–CaV2.1 IQ complex |  | binding stoichiometry | 0.75 ± 0.03
CCn1c(=O)[nH]c2cc(C(=O)NC(c3ccc(F)cc3)c3cnn(C)c3)ccc2c1=O (centres unmarked) | WD repeat-containing protein 91 (Homo sapiens, UniProt A4D1P6) | binding, SPR steady state |  | 3.75 µM |  | SPR response | 19.8 RU
NC(=O)C[C@H](N)C(=O)O | NAA80 | substrate, DTNB |  | 2 mM, 30 min, 37 °C, with: acetyl-CoA 500 µM |  | product formation | 0.09 µM
CCCCC[S+]([O-])c1n[nH]c(N)n1 (centres unmarked) | TLE4 | binding, affinity selection mass spectrometry |  |  | reference: other proteins in batch | log fold enrichment | -0.0585
Cc1[nH]c(C)c(S(=O)(=O)Nc2ccc(C(F)(F)F)c(Cl)c2)c1C(=O)N1CCC(F)(F)C1 | D(3) dopamine receptor (DRD3, Homo sapiens, UniProt P35462) | allosteric modulator, ternary complex model |  | with: pramipexole, [3H]methylspiperone |  | cooperativity factor α | 8.7

Some of these lines once more:
SMILES | target | test | test system | conditions | scale | quantity | result
Nc1ncnc2c1ncn2[C@@H]1O[C@H](COP(=O)(O)OP(=O)(O)OP(=O)(O)O)[C@@H](O)[C@H]1O | Creatine kinase U-type, mitochondrial (CKMT1A, Homo sapiens, UniProt P12532, E264A) | substrate, ADP-Glo luminescence |  | pH 8.5, forward reaction, E226A mutant, with: second substrate in excess |  | Km | 230 ± 30 µM
N#CC1CCN(C(=O)c2ccc(SCc3nc4ccccc4[nH]3)cc2)CC1 | WD repeat-containing protein 91 WD40 domain, residues 392–747 | SPR |  | 45 µM |  | binding | 0% and -7%
